Measured values of several laboratories.
Each numbered part is a random draw from the data of one study; scales do not carry over between parts. Positions count from the first letter of the parent shown.

Set 1
Target: CCNA2, cyclin fold, Cln2 fusion (human)
Method: yeast growth competition, sequencing
Matrix: yeast
Setting: strong parent motif
Reference: not given
Reading: higher = stronger binding
Parent: INSM1 docking peptide (human); PKAIRKLHFEDEV; partner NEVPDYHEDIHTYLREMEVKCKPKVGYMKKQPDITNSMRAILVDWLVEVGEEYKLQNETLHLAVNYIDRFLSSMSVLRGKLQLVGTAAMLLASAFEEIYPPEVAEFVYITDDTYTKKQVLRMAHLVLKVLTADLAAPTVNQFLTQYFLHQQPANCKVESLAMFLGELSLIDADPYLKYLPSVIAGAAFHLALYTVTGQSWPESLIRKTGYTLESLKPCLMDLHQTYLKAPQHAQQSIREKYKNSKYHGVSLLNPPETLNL
`PKAIRKYHFEDEV [L7Y]`: “normalised enrichment score” 0.263.
For `PQAIRKLHFEDEV [K2Q]`, “normalised enrichment score” read 4.31.
For `PKAINKLHFEDEV [R5N]`, “normalised enrichment score” read 0.135.
`PKAIRKLHFEDGV [E12G]` — result for “normalised enrichment score”: 4.94.
Under “normalised enrichment score”, `PKAIRKLHFEMEV [D11M]` is recorded as 4.57.
Under “normalised enrichment score”, `PKAIRKLHHEDEV [F9H]` is recorded as 0.533.
Under “normalised enrichment score”, `PKAIRKLHFESEV [D11S]` is recorded as 4.84.
For `PKAIRKLHFEDYV [E12Y]`, “normalised enrichment score” read 4.91.
Under “normalised enrichment score”, `PKAIMKLHFEDEV [R5M]` is recorded as 1.97.
For `PKAIRKPHFEDEV [L7P]`, “normalised enrichment score” read 0.366.
`PKAIRKLHVEDEV [F9V]`: “normalised enrichment score” 0.458.
For `PKAIRKLLFEDEV [H8L]`, “normalised enrichment score” read 5.52.
Under “normalised enrichment score”, `PKAIRKLDFEDEV [H8D]` is recorded as 5.73.
Under “normalised enrichment score”, `PKAIRKTHFEDEV [L7T]` is recorded as 0.22.
For `PKAIRALHFEDEV [K6A]`, “normalised enrichment score” read 4.27.
For `PKALRKLHFEDEV [I4L]`, “normalised enrichment score” read 6.04.
`PKAIRKLHGEDEV [F9G]` — result for “normalised enrichment score”: 0.061.
For `PKAIDKLHFEDEV [R5D]`, “normalised enrichment score” read 0.191.
`PKTIRKLHFEDEV [A3T]`: “normalised enrichment score” 2.67.
For `PKAIRKLHFEEEV [D11E]`, “normalised enrichment score” read 5.25.
`PKAIRKLHREDEV [F9R]` — result for “normalised enrichment score”: -0.11.
`PKAIRQLHFEDEV [K6Q]` — result for “normalised enrichment score”: 5.17.
For `PKAIRKLHFELEV [D11L]`, “normalised enrichment score” read 4.6.
Under “normalised enrichment score”, `PTAIRKLHFEDEV [K2T]` is recorded as 4.93.
For `PKAIHKLHFEDEV [R5H]`, “normalised enrichment score” read 0.411.

Set 2
Target: Interferon regulatory factor 5, full length, phosphomimetic (IRF5, Homo sapiens, UniProt Q13568-2, residues 1-514, S451D/S453D/S456D/S462D)
Method: protein-binding microarray
Form: double-stranded DNA, one strand shown
Matrix: in vitro
Tested at: 940 nM top
Setting: 60-bp whole probe
With: salmon DNA 0.4 mg/ml
Reference: random background probes
Reading: higher = stronger binding
All sequences stand within: GCCTAGCAC … GTGCTAGGTCTTGATTCGCTTGACGCTGCTG
`ATAGATCTCAGACTGGATTA`: “fitted relative affinity” -0.227 z-score.
`TCAATTTTTGCTTACGAACT`: “fitted relative affinity” 0.259 z-score.
`TCACCTCTGTAAGTCAGACT` — result for “fitted relative affinity”: -0.198 z-score.
`GACGATATCAGACAGGAGAC`: “fitted relative affinity” -0.392 z-score.
For `TCAAGTTTATACCTTAGACT`, “fitted relative affinity” read -0.311 z-score.
Under “fitted relative affinity”, `TTAGGTATCCTTCTCCTTAA` is recorded as 0.674 z-score.
Under “fitted relative affinity”, `GACGATTTCAGCCTGGAGAC` is recorded as 0.184 z-score.
`GACGGTTTCCTTTTCCAGAC`: “fitted relative affinity” 2.37 z-score.
`GACGGACTGCTTTTCCTGAA`: “fitted relative affinity” -0.421 z-score.
Under “fitted relative affinity”, `GAAGGTCTCCTTTTCCTGAC` is recorded as 0.273 z-score.
`TAAGGTTTCGGTCTCGGTTA` — result for “fitted relative affinity”: 12.3 z-score.
For `TCATATATATGTGTATAACT`, “fitted relative affinity” read 0.0247 z-score.
For `TTAGGTTTCCATTTCCTTTA`, “fitted relative affinity” read 2.16 z-score.
`TTTACTCTCTACATGGGTAT` — result for “fitted relative affinity”: 1.62 z-score.
For `GACGGTCTCGTACTGCTGAC`, “fitted relative affinity” read 0.571 z-score.
For `TCAGTTTTCCTTCATGTACT`, “fitted relative affinity” read 1.43 z-score.
For `GACGGACTGGGTCTCGGAAC`, “fitted relative affinity” read -0.0575 z-score.
`TTAGGTTTCCGTCTCGGTTA`: “fitted relative affinity” 4.37 z-score.

Set 3
Target: UBE2V1 UBC core domain (UniProt Q13404)
Chain of UniProt Q13404 (whole entry, looked up): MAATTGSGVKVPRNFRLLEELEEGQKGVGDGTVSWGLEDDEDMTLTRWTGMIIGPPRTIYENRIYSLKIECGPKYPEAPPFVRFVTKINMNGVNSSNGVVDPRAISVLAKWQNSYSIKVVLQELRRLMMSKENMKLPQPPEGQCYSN
Method: yeast two-hybrid
Matrix: yeast
Setting: mostly zero background
Reference: not given
Reading: higher = stronger interaction
B1: TRIM22 RING domain (UniProt Q8IYM9); chain VKVDIEKEVTCPICLELLTEPLSLDCGHSFCQACITAKIKESVIISRGESSCPVCQTRFQPGNLRP
B2: TRIM37 RING domain (UniProt O94972); chain SVESIAEVFRCFICMEKLRDARLCPHCSKLCCFSCIRRWLTEQRAQCPHCRAPLQLRELVN
B3: MYCBP2 RING domain (UniProt O75592); chain TSLKQDADDMCMICFTEALSAAPAIQLDCSHIFHLQCCRRVLENRWLGPRITFGFISCPICKNKINHIVLKD
B4: ANAPC11 RING domain (UniProt Q9NYG5); chain GICRMAFNGCCPDCKVPGDDCPLVWGQCSHCFHMHCILKWLHAQQVQQHCPMCRQEWKFKE
B5: TRIM26 RING domain (UniProt Q12899); chain PLRSLEEEVTCSICLDYLRDPVTIDCGHVFCRSCTTDVRPISGSRPVCPLCKKPFKKENIRP
B6: RNF2 RING domain (UniProt Q99496); chain SPRSLHSELMCPICLDMLKNTMTTKECLHRFCADCIITALRSGNKECPTCRKKLVSKRSLR
B7: RNF152 RING domain (UniProt Q8N8N0); chain ETLSQDSLLECQICFNYYSPRRRPKLLDCKHTCCSVCLQQMRTSQKDVRCPWCRGVTKLPPGFS
B8: TRIM54 RING domain (UniProt Q9BYV2); chain SMDNLEKQLICPICLEMFSKPVVILPCQHNLCRKCANDVFQASNPLWQSRGSTTVSSGGRFRCPSCRHEVVLDRHGV
For `B1 (TRIM22 RING domain)`, “lacZ reporter activity” read 0.
For `PEELAVNNDDCAICWDSMQAARKLPCGHLFHNSCLRSWLEQDTSCPTCRMSLNIADNNR (AMFR RING domain (UniProt Q9UKV5))`, “lacZ reporter activity” read 0.
`B2 (TRIM37 RING domain)` — result for “lacZ reporter activity”: 0.
For `FVKTVEDKYKCEKCHLVLCSPKQTECGHRFCESCMAALLSSSSPKCTACQESIVKDKVF (TRAF3 RING domain (UniProt Q13114))`, “lacZ reporter activity” read 0.
`YCEMGSTFQLCKICAENDKDVKIEPCGHLMCTSCLTAWQESDGQGCPFCRCEIKGTEPII (CBLB RING domain (UniProt Q13191))`: “lacZ reporter activity” 0.
`B3 (MYCBP2 RING domain)`: “lacZ reporter activity” 0.
`B4 (ANAPC11 RING domain)` — result for “lacZ reporter activity”: 0.
For `B5 (TRIM26 RING domain)`, “lacZ reporter activity” read 0.
Under “lacZ reporter activity”, `B6 (RNF2 RING domain)` is recorded as 0.
`KPDKMEETLTCIICQDLLHDCVSLQPCMHTFCAACYSGWMERSSLCPTCRCPVERICKNH (CHFR RING domain (UniProt Q96EP1))` — result for “lacZ reporter activity”: 0.
`B7 (RNF152 RING domain)`: “lacZ reporter activity” 0.
Under “lacZ reporter activity”, `B8 (TRIM54 RING domain)` is recorded as 0.

Set 4
Target: Histone acetyltransferase KAT6A, winged helix 1, GST fusion (KAT6A, Homo sapiens, UniProt Q92794, residues 1-85)
Method: protein binding microarray
Form: double-stranded DNA, one strand shown
Matrix: in vitro
Tested at: not given
Setting: 8-mer, flanks averaged, mean of 2 arrays, mostly near background
Reference: not given
Reading: higher = stronger binding
Residues (chain): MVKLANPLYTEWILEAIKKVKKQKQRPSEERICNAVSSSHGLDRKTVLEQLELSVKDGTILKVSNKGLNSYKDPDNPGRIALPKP
For `AATGAAGC`, the E-score was -0.108.
With `GTGAAGTA` the E-score was -0.0906.
`CTACACCC` has an E-score of -0.139.
The E-score of `AGGGGTGC` is reported as -0.0705.
With `GATAGATC` the E-score was -0.0304.
The E-score of `ACTGAACC` is reported as 0.0163.
`CATTTGCA` gave an E-score of -0.203.
For `ACTGGCGA`, the E-score was -0.0806.
The E-score of `CCTTGAAG` is reported as -0.0509.
For `AATAAGTA`, the E-score was -0.18.
For `GGCACGAC`, the E-score was -0.0625.
`CCTAGTCA` gave an E-score of -0.229.
The E-score of `AAAGGAAA` is reported as -0.14.
With `CTACACGA` the E-score was -0.117.
`ACAAGAGA` gave an E-score of -0.225.
For `CCGGCGAA`, the E-score was 0.252.
For `GAACGGAA`, the E-score was 0.12.
With `AAATCACT` the E-score was -0.234.
For `AGGCGCAA`, the E-score was 0.181.
With `ACACAACC` the E-score was -0.043.
`AGTAGGTC` has an E-score of -0.0417.
`CTTAATGC` has an E-score of -0.0353.
`AACTGACA` has an E-score of -0.0746.
`ATCGGCAA` gave an E-score of 0.129.
For `GACGTTCC`, the E-score was -0.00512.

Set 5
Target: HLF, bZIP domain (human)
Method: DHFR protein complementation
Matrix: yeast
Setting: single substitutions, most at no-binding floor
Reference: wild-type JUN-FOS pair
Reading: higher = stronger binding
Parent: JUN, bZIP domain (human); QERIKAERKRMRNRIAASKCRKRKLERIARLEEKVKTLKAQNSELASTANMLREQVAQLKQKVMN; partner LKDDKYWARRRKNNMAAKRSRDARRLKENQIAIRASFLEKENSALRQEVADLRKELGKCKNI
`Q41P` has a binding fitness of -1.52 natural log.
The binding fitness of `L38E` is reported as -1.47 natural log.
`A49W` gave a binding fitness of -1.48 natural log.
`E44H` gave a binding fitness of -1.47 natural log.
`Q41N` gave a binding fitness of -1.39 natural log.
The binding fitness of `L38H` is reported as -1.47 natural log.
For `I28R`, the binding fitness was -1.33 natural log.
`T48D` has a binding fitness of -1.5 natural log.
`L59G` has a binding fitness of -1.36 natural log.
For `I28M`, the binding fitness was -1.38 natural log.
With `K39I` the binding fitness was -1.33 natural log.
For `S43C`, the binding fitness was -1.41 natural log.
The binding fitness of `V56T` is reported as -1.52 natural log.
For `A46C`, the binding fitness was -1.45 natural log.
For `Q55E`, the binding fitness was -1.35 natural log.
For `T48Q`, the binding fitness was -1.45 natural log.

Some of these lines once more (set 5):
For `S43C`, the binding fitness was -1.41 natural log.
For `Q55E`, the binding fitness was -1.35 natural log.
`E44H` gave a binding fitness of -1.47 natural log.
`A49W` gave a binding fitness of -1.48 natural log.
`Q41N` gave a binding fitness of -1.39 natural log.
For `A46C`, the binding fitness was -1.45 natural log.
`L59G` has a binding fitness of -1.36 natural log.
The binding fitness of `L38H` is reported as -1.47 natural log.
The binding fitness of `L38E` is reported as -1.47 natural log.
The binding fitness of `V56T` is reported as -1.52 natural log.
For `I28M`, the binding fitness was -1.38 natural log.
`Q41P` has a binding fitness of -1.52 natural log.
For `T48Q`, the binding fitness was -1.45 natural log.
`T48D` has a binding fitness of -1.5 natural log.
For `I28R`, the binding fitness was -1.33 natural log.
